Results gathered from unrelated publications.
Numbered parts are unrelated; each lists some results of a single study. Substitutions count along the parent as printed.

Sample 1 — target: CRIPT, C-terminal peptide; method: DHFR complementation, deep sequencing; sample: yeast; relative to: wild type; direction: higher = weaker binding
Setting: single substitutions, model-inferred values
Starting sequence: ERBIN, PDZ domain 1 (human); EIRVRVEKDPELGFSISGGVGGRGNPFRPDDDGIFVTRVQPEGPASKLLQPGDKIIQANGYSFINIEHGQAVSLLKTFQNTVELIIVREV; partner TKNYKQTSV
`L49H`: “binding free energy change” 1.35 kcal/mol.
Under “binding free energy change”, `Q57N` is recorded as 0.0685 kcal/mol.
`D31S` — result for “binding free energy change”: 0.316 kcal/mol.
For `D30A`, “binding free energy change” read 0.164 kcal/mol.
`I86W` — result for “binding free energy change”: 0.768 kcal/mol.
Under “binding free energy change”, `Y61A` is recorded as -0.0538 kcal/mol.
`E42A`: “binding free energy change” -0.0364 kcal/mol.
`G24D`: “binding free energy change” 1 kcal/mol.

Sample 2 — method: Spec-seq; molecule type: double-stranded DNA, one strand shown; sample: in vitro; concentration: not given; setting: whole probe, mean of replicates; relative to: not given; direction: lower = stronger binding; constant ends, left off below: GAGTCGTCTCGTCAGCAC … CCGTAGAGCACTCAGGTC
Target: POU domain, class 5, transcription factor 1, POU domain (Pou5f1, Mus musculus, UniProt P20263, residues 131-289)
UniProt P20263, sequence (131-289, looked up): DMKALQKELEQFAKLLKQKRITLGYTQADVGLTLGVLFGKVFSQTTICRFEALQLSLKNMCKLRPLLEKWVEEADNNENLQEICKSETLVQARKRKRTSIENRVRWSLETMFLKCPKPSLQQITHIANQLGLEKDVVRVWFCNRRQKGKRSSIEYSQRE
For `ATGCGATT`, “relative binding energy” read 0.0107 ln ratio.
`CCTCTAAT`: “relative binding energy” 0.945 ln ratio.
Under “relative binding energy”, `ATCGGAAT` is recorded as 0.175 ln ratio.
For `ATGCGAAC`, “relative binding energy” read 0.302 ln ratio.
`ATACTAAT`: “relative binding energy” -0.0635 ln ratio.
Under “relative binding energy”, `TTAATAAT` is recorded as -0.287 ln ratio.
`ATCCAAAT` — result for “relative binding energy”: 0.361 ln ratio.
For `ATATAGAT`, “relative binding energy” read 0.289 ln ratio.

Mixed results
P1: viral docking peptide; KKAKRRLFTISDS; partner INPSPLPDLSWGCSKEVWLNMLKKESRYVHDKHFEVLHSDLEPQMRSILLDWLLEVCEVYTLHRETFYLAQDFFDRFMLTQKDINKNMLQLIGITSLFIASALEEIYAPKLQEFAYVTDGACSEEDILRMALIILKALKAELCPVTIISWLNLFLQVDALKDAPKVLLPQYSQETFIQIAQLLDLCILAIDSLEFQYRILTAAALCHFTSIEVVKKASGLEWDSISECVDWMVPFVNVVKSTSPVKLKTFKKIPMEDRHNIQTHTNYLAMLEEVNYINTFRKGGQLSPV
For `P1 T9A`, “normalised enrichment score” read 2.36 (CCNE2, cyclin fold, Cln2 fusion (human); yeast growth competition, sequencing; yeast; strong parent motif; relative to: not given, higher = stronger binding).
`RAB1A (Homo sapiens, UniProt P62820)`: interaction screen “cross-linked” (RAB1C (Homo sapiens, UniProt Q92928); cross-linking MS; hits only).

Excerpt of the above (sample 2):
For `ATGCGAAC`, “relative binding energy” read 0.302 ln ratio.
